Measurements collected from several papers.
A part holds a random share of what one study measured. Positions count from the first letter of the parent shown.

Set 1
Target: RNA binding protein fox-1 homolog 2, RRM domain, GST-SBP tag (RBFOX2, Homo sapiens, UniProt O43251-10, residues 100-194)
Technique: RNA Bind-n-Seq
Form: RNA
Medium: in vitro
Tested at: 365 nM
Setting: natural RNA segment, single round, ends assumed
Reference: no-protein control
Reading: higher = stronger binding
All sequences stand within: GGGAGUUCUACAGUCCGACGAUC … UGGAAUUCUCGGGUGCCAA
Residues (chain): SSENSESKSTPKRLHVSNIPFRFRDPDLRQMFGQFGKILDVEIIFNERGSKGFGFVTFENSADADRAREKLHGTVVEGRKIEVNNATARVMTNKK
Oligonucleotide | RBNS enrichment (R)
CUCCCCAAUCACUUAGUCUUCACCUACCCCAUUCCAAUAAGCCUCAUUUCUUCUCAUCCCCUGCUUGGCUUCUCUGCAUGUGGUCAUCUGCUAUGGCCUGGUGUGUAAUG | 12.7
AUCUGGAGUCCUUCAUGCCCAGGUCUGGAACCCAGGUUCUGACCCCAGGGCCCCACCCUGGGCUGGACAAUCAGAUCCCAAAGGAAUGCCAAAGGGGACUCGGUUGGGAG | 0.451
AAAAGCUUGACUCUGAUUCACAGUUUUGUAUGUAGCUGGUUUGACGUAGUCUUUUGUAUUUUCCCUGCCGAAGUGAAUUGUUGGAGAAUGUAAACCGCCUCCACGUGGCG | 4.79
AGAAAAUGAGCAGAUUUCUUUCCAUUGUGGGCUCUGGAAACCACAUGGCUUCACCUGUCCCCGAAACUACCAGCCCUACACCAUUCCUUCUGCCCUGCUUUUGCUAGGUC | 0.656
ACGGGUGGAGGACCUCUAGGUGCGUAUGUAUUUCCCUUGGAAGGAACAGGAAGUUUGCUCUAAGAUGAGACUGUUGUUGUCUGGACUUCCUCUAGAAAUCCCAGCAGAAU | 1.14
CAUUUGUAAAUGCAAGAUGCAUUGUAAAAUAAAGUUAAGCUUGUUUUUUUUUAAAAAAAACAAAGCAACAAAUUGACUAGAUAUAGGAUAAUUGAAACAUGUUAAAACAU | 0.428
CUUGGUUUGGGGGUUCAGGCUCUAGGAUCGAUUCCAGAAGGAGCCUUGAGCCCCAACCCCGUGAAAAGAUCUCAUACCGUAGGACUUCAGGUAUUAUUUACUUUUAUUUU | 0.488
UGUCUGCUGCCACUGACAGUCCAGUGAAUCCUUUUCUGUCUGUUCCUAACAACUUUUAUUUGACACAUUAAAAAAUUUCUGACUGUCCUUAAGACAGUAGAGAUGUCUCU | 0.262
UCCUCCCAGGUUGGUGUCCCACUGGACAGGUCACAAUGCAGGCUGCCUGCUUUGCCUCCUCCUGUGUUUCCCUGCUCCAGGGCCACUUCCAGGGAUUACAUGGAGGAUCA | 1.44
GCCUUACUUCCUGGAGACCCACCCUGGGGUACCCCACUGCAGGGGGGUACCCCCUUUGCACUUUGACCCUCCUGAUGACGUGGGGCCCAGCACAGGGACCAAGAAGGCUG | 2.13
GCGGGACAGGCAAGAGACGUUCGUUCCAAGAGGAUUCUCAUAAGGGAAGUGACGGUUCUUAGAGGAGAAAAGCAAAAGGCUUGGGAGAUCCACAUGGCCUGUCCCCGUGA | 0.81
AGAAAACAGGGGGCCUAAAGAAUGUCCCCCACCCCUUGGCCUCUGCCUCCUUGGCCCCACAUUUCUGCAAACAUAAAUAUUUACGGAUAGAUUGCUAGGUAGAUAGACAC | 1.08

Set 2
Target: RING finger protein unkempt homolog, zinc fingers 1-6, GST-SBP tag (UNK, Homo sapiens, UniProt Q9C0B0, residues 30-357)
Sequence of UniProt Q9C0B0 (30-357, looked up): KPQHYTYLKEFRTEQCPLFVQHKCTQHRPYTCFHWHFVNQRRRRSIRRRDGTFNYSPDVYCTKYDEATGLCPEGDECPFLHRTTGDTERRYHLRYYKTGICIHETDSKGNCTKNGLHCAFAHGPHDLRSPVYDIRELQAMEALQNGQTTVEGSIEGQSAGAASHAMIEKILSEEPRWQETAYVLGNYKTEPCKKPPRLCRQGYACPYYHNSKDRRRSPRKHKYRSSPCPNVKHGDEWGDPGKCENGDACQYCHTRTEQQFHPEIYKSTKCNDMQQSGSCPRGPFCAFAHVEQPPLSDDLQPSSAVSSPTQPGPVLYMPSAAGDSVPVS
Technique: RNA Bind-n-Seq
Form: RNA
Medium: in vitro
Tested at: not given
Setting: RNA with constant flanks, ends assumed
Reference: input RNA pool
Reading: higher = stronger binding
All sequences stand within: GGGAGUUCUACAGUCCGACGAUC … CAACAGAGGAUUGAGCAUCA
Oligonucleotide | bound/input enrichment
AUGAUGAAAGGAGAAUUUUAUGUCAUUGAAUAUGCUGCUUGUGACGCUACUUACAAUGAAACCGUCACAUUUGAACGACUUCGGCCUGUCAAUCAAAAUAAAACUGUCAAAAAAAAUACC | 0.285 ratio
AGUUUCAGUAUCUCUGGCUGGAGUAUUGACUCACAAAAAGAACCAUCCAGAGAGCACAGUCCGCAUUAUGUCCCUGUGUGUGAGUGCUGUUACUUACGCCGUUUUGUAUCGUACAGUACA | 0.154 ratio
GAAGUUGCAAGCAAUGUUCCAAAAGUUGUAGGUUCUGCUGUUGGUAGCGGGUCCAUUACCCGUAACAUCGUGGCUUCCAAUAGUUUGCCUCCAGCCACCAUUGCUCCUCCAAAACCAGCA | 0.334 ratio
GAUAUGGGCUAUAAUACAUUAGCCAACUUUCGAAUAGAAAAGAAAAUUGGUCGCGGACAAUUCCGUGAAGUUUAUAGAGCAGCCUGUCUCUUGGAUGGAGUACCAGUAGCUUUAAAAAAA | 0.433 ratio
AAAAUAAACAGAAUAGACCAUGACCGGAGAGCGAUGGCUACUUUAUUGAGUAAAUUCCGGACCGACUUCUCUGAUAUCAUGGUCCUUGGAGAUAUCAACACCAAGCCAAAAAAAGAAAAU | 0.248 ratio
UCUGCCCCAGAACAAUUCUGCAGAGUGGUGAAGUUCACUUCCCCAACUCUUCUCCAAGUCCCGCUUUCCUUUCCUUCUGGCUCCAAGGUGCUCUGUGUCCGUCUGUGUAUGUGUGUGUCU | 0.684 ratio
UUUCGACAGUUUAUAUUGGUCAUGAAUGCAUUAGAUAACAGAGCUGCACGAAACCACGUGAACCGGAUGUGUCUGGCCGCUGAUGUGCCUCUCAUUGAGAGCGGGACUGCUGGGUAUCUC | 0.251 ratio
AGCACAACCCCAGCAAAGCUAAGAAAUCCUUGUACAAGUGAACAAAACUGCACCAGCCCAUUCCGCUACAAAAAUGUGCUUAGUCUUACUGACAGAGGAGAGUUUUUCAAUGAACUUGUU | 0.295 ratio
GAUAUUUGUAAAUAAAGGUAGAAAUAUUAGAUCCAUUUCUGCAGAACUUACUGUACAGUUCCGUUGGAGUGUAGCACUGAAGAACUGUCAGCUCAGCGUUGACUGAGGAGAUAGUGAAAA | 0.783 ratio
GAGAAGAAGCAGCAACUUCUUAGAGCGGCAACAGGAAAGGCCAUUUUAAAUGGAACCGACCGCAUUAACAAAGUGCUAGAACAUUUUCGGCGAAAAGGUAUAAACCAGCAUGUUCAAAAU | 0.173 ratio
CAUUCUCUUAGUGAUGGGCUGGAGGAAGUCCAAAAAGCAGAAAUGAAAGCUUACAUGGAAUCCGUCAACAAUAUGCUGUUGACUGCAGAGCUGUAUCUUCAGUGGUGUGAUGAAGCUACA | 0.113 ratio

Set 3
Target: Sal-like protein 4, full length isoform A (SALL4, Homo sapiens, UniProt Q9UJQ4, residues 1-1053)
Sequence of UniProt Q9UJQ4 (whole entry, looked up): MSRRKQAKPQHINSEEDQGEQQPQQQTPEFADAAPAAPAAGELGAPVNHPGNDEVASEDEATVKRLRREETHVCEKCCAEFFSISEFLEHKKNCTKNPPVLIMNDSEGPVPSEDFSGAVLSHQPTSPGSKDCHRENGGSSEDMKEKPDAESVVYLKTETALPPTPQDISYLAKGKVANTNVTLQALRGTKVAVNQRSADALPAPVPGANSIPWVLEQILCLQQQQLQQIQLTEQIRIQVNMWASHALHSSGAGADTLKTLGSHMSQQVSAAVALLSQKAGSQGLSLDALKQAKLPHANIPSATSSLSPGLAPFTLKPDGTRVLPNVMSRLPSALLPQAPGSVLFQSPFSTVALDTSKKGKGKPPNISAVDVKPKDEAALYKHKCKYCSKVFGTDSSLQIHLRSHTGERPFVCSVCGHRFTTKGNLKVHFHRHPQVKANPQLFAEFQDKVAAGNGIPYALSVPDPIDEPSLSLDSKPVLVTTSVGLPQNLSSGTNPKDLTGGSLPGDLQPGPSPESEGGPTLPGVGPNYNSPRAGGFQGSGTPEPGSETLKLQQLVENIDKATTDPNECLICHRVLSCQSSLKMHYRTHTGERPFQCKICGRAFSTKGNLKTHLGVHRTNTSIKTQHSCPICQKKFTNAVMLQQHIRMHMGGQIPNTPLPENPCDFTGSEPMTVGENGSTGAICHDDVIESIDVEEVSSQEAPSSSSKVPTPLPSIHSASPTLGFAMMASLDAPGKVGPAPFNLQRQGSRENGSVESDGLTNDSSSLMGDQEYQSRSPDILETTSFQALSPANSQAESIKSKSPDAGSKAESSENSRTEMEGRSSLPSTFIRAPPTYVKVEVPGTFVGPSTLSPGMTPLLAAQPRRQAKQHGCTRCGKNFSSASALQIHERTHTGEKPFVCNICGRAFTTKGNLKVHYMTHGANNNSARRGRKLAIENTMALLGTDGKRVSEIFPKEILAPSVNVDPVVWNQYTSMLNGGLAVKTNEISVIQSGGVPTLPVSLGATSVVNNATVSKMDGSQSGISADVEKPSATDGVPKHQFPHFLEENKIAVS
Technique: universal PBM
Form: double-stranded DNA, one strand shown
Medium: in vitro
Tested at: 600 nM
Setting: 8-mer, flanks averaged, mean of replicates
Reading: higher = stronger binding
Oligonucleotide | E-score
ATGACGAG | -0.0389
TAGCCCAA | -0.0686
AGCAGAGA | -0.0477
AGTATGGA | 0.217
AGAGTTAG | -0.0334
GGCTGTCA | -0.208
CGCACTGA | -0.267
ACTTAGTA | 0.176
AAAGCTTT | 0.0887
TAATAAAA | 0.432
AGCATGTG | 0.0683
CCGGCAAA | -0.104
AGGCCATA | -0.00551
CGGCGAAG | -0.219
GCGCGGGA | -0.259
AGGGCAGG | -0.259
AAGTGTCA | -0.0186
ATAGCTTA | 0.22
TAGTTAAA | 0.238
CGGTTCCA | -0.256
AGAGAATC | -0.0362
ACGTCCAT | 0.0576
GCGAAAAC | -0.113

Set 4
Target: CCNE2, cyclin fold, Cln2 fusion (human)
Technique: yeast growth competition, sequencing
Medium: yeast
Setting: strong parent motif
Reference: not given
Reading: higher = stronger binding
Starting sequence: RBL2 docking peptide (human); STTRRRLFVENDS
Substitution | normalised enrichment score
R5Y | 0.8
F8G | -0.111
R4P | 0.136
R4D | -0.975
R6L | 1.28
S13C | 4.12
R6E | -0.015
N11F | 4.16
T3E | 0.92
L7F | 0.0304
D12I | 3.93
L7R | 0.695
T2D | 2.97
E10I | 1.45
L7M | 0.606
N11Q | 4.43
S13P | 5.14
T3Y | 5.84
V9A | 4.22
V9L | 3.15
V9M | 4.22
S13M | 4.11

Set 5
Target: TAR DNA-binding protein 43, full length, His tag (TARDBP, Homo sapiens, UniProt Q13148, residues 1-414)
Technique: RNA Bind-n-Seq
Form: RNA
Medium: in vitro
Tested at: 20 nM
Setting: 6-mer, flanks averaged, single round
With: 150 mM LiCl
Reference: input library
Reading: higher = stronger binding
Oligonucleotide | 6-mer enrichment (R)
AAUUUA | 1.04
CAGGCU | 0.87
GUGCAG | 1.13
UAGAAA | 0.857
CGUAAC | 0.821
AGCUGA | 0.864
ACCAAA | 0.829
UUUUCC | 1.14
ACGGUC | 0.825
CGCGAC | 0.872
GCCUCA | 0.918
AUUAAU | 0.978
CUGUGA | 0.953
AUCGCC | 0.871
GGCACC | 1.07
CGGCUA | 0.891
CUACGC | 0.836
GACCGC | 0.877
GGUGUA | 1.31
UAGACU | 0.878
UCUAUU | 1.01
GCCAUU | 0.954
UGCGUU | 1.13
UAAGCU | 0.851

Excerpt of the above (set 4):
Substitution | normalised enrichment score
R4P | 0.136
R4D | -0.975
R6L | 1.28
S13C | 4.12
R6E | -0.015
N11F | 4.16
T3E | 0.92
L7F | 0.0304
D12I | 3.93
L7R | 0.695
T2D | 2.97
